Measured values of several laboratories.
Parts stem from different laboratories: compare values within a part only.

Set 1 — species: mice, PTZ-induced seizures; route: oral; dose: 20 mg/kg; time: 24 h after PTZ
`O=C(O)COc1ccc(Br)cc1/C=N/NC(=O)c1ccc(Cl)cc1` has a mortality of 10%.
The mortality of `O=C(O)COc1ccc(Br)cc1C=NNC(=O)Cc1ccccc1` (mixture of isomers) is reported as 0%.
For `O=C(O)COc1ccc(Br)cc1/C=N/NC(=O)CNc1ccccc1`, the mortality was 40%.
For `O=C(O)COc1ccc(Br)cc1/C=N/NC(=O)c1ccccc1`, the mortality was 40%.
For `O=C(O)COc1ccccc1/C=N/NC(=O)CNc1ccc(Cl)cc1`, the mortality was 20%.
For `Cc1ccc(NCC(=O)N/N=C/c2cc(Br)ccc2OCC(=O)O)cc1`, the mortality was 50%.

Set 2 — effect on: ligand displacement; method: radioligand
Target: C-X-C chemokine receptor type 4 (CXCR4, Homo sapiens, UniProt P61073)
Chain of UniProt P61073 (whole entry, looked up): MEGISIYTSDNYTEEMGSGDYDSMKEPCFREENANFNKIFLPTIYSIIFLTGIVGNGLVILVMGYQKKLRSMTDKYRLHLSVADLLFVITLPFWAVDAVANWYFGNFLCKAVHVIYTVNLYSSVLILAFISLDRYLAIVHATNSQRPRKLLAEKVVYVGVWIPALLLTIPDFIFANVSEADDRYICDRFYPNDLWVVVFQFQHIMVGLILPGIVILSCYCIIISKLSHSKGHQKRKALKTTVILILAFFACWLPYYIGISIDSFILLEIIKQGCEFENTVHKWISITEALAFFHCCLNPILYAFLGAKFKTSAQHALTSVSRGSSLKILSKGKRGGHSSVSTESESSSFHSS
`CC(C)C[C@H](NC(=O)[C@H](CO)NC(=O)[C@@H](NC(=O)[C@@H]1CCCN1C(=O)[C@@H](N)CCCCN)C(C)C)C(=O)N[C@@H](CO)C(=O)N[C@@H](Cc1ccc(O)cc1)C(=O)NCCCC[C@H](NC(=O)[C@@H]1CSSC[C@H](NC(=O)[C@H](Cc2ccc3ccccc3c2)NC(=O)[C@H](CCCNC(=N)N)NC(=O)[C@@H](N)CCCNC(=N)N)C(=O)N[C@@H](Cc2ccc(O)cc2)C(=O)N[C@@H](CCCNC(=N)N)C(=O)N[C@@H](CCCCN)C(=O)N[C@H](CCCCN)C(=O)N2CCC[C@H]2C(=O)N[C@@H](Cc2ccc(O)cc2)C(=O)N[C@@H](CCCNC(=N)N)C(=O)N[C@@H](CCCNC(=N)N)C(=O)N1)C(=O)O` gave an IC50 of 38.6 nM.
`CC(C)C[C@H](NC(=O)[C@H](CO)NC(=O)[C@@H](NC(=O)[C@@H]1CCCN1C(=O)[C@@H](N)CCCCN)C(C)C)C(=O)N[C@@H](CO)C(=O)N[C@@H](Cc1ccc(O)cc1)C(=O)N[C@@H](CCCNC(=N)N)C(=O)N[C@@H](CO)C(=O)N1CCC[C@H]1C(=O)NCCCC[C@H](NC(=O)[C@@H]1CSSC[C@H](NC(=O)[C@H](Cc2ccc3ccccc3c2)NC(=O)[C@H](CCCNC(=N)N)NC(=O)[C@@H](N)CCCNC(=N)N)C(=O)N[C@@H](Cc2ccc(O)cc2)C(=O)N[C@@H](CCCNC(=N)N)C(=O)N[C@@H](CCCCN)C(=O)N[C@H](CCCCN)C(=O)N2CCC[C@H]2C(=O)N[C@@H](Cc2ccc(O)cc2)C(=O)N[C@@H](CCCNC(=N)N)C(=O)N[C@@H](CCCNC(=N)N)C(=O)N1)C(=O)O` gave an IC50 of 9.57 nM.
The IC50 of `CC(C)C[C@H](NC(=O)[C@H](CO)NC(=O)[C@@H](NC(=O)[C@@H]1CCCN1C(=O)[C@@H](N)CCCCN)C(C)C)C(=O)N[C@@H](CO)C(=O)N[C@@H](Cc1ccc(O)cc1)C(=O)N[C@@H](CCCNC(=N)N)C(=O)NCCCC[C@H](NC(=O)[C@@H]1CSSC[C@H](NC(=O)[C@H](Cc2ccc3ccccc3c2)NC(=O)[C@H](CCCNC(=N)N)NC(=O)[C@@H](N)CCCNC(=N)N)C(=O)N[C@@H](Cc2ccc(O)cc2)C(=O)N[C@@H](CCCNC(=N)N)C(=O)N[C@@H](CCCCN)C(=O)N[C@H](CCCCN)C(=O)N2CCC[C@H]2C(=O)N[C@@H](Cc2ccc(O)cc2)C(=O)N[C@@H](CCCNC(=N)N)C(=O)N[C@@H](CCCNC(=N)N)C(=O)N1)C(=O)O` is reported as 16.5 nM.

Other studies, line by line
aminopeptidase N2 N1303Q/N840Q: aminopeptidase N2 (Toxoplasma gondii, UniProt S8G5K8, N1303Q/N840Q)
`CC(C)(C)C(=O)NC(C(=O)NO)c1ccc(-c2ccsc2)cc1` (stereo not shown) has a Ki of 2400 nM (aminopeptidase N2 N1303Q/N840Q).
`C=CCCCC(C)(NC(=O)[C@H](Cc1c[nH]cn1)NC(=O)[C@@H](N)CC(=O)O)C(=O)N[C@@H](CC(N)=O)C(=O)N1CCC[C@H]1C(=O)N[C@@H](CCC(N)=O)C(=O)N[C@H](C(=O)N[C@@H](CCCNC(=N)N)C(N)=O)[C@@H](C)CC` (stereo partly shown) — result for organ coefficients: “no effect” (Kunming mouse, heart, liver, lung, kidney; subcutaneous, 5000 mg/kg).
The Ki of `CC(C)(C)OC(=O)NC(C(=O)NO)c1ccc(Br)cc1` (stereo not shown) is reported as 2900 nM (aminopeptidase N2 N1303Q/N840Q).
`C=CCCCC(C)(NC(=O)[C@H](CC(N)=O)NC(=O)[C@H](Cc1c[nH]cn1)NC(=O)[C@@H](N)CC(=O)O)C(=O)N1CCC[C@H]1C(=O)N[C@@H](CCC(N)=O)C(=O)N[C@H](C(=O)N[C@@H](CCCNC(=N)N)C(N)=O)[C@@H](C)CC` (stereo partly shown) — result for viability: “not toxic” (NIH3T3; cytotoxicity, MTT; up to 10 µM, 24 h).
